Published values collected from several papers.
Each numbered part is a random draw from the data of one study; scales do not carry over between parts.

Block 1
Target: Interferon regulatory factor 5, full length, phosphomimetic (IRF5, Homo sapiens, UniProt Q13568-2, residues 1-514, K96S/S451D/S453D/S456D/S462D)
Method: protein-binding microarray
Molecule type: double-stranded DNA, one strand shown
Matrix: in vitro
Concentration: 250 nM
Notes: 60-bp whole probe
Added: salmon DNA 0.4 mg/ml
Relative to: random background probes
Reading: higher = stronger binding
Constant ends, left off below: GCCTAGCAC … GTCTTGATTCGCTTGACGCTGCTG
Strand | log fluorescence [z-score]
AACGGTCTCCTACTGCTGACGTGCTAG | -0.153
TCACATTAAATTTTAATACTGTGCTAG | 0.822
TCAAGTCTGAGATCCAGACTGTGCTAG | -0.329
TTAGGACTGGGGACTGGGTAAGTGCTA | -0.605
TCAGTTCACTATTTAAGACTGTGCTAG | 0.39
TTAGGACTTCTTTTCCTTTAGTGCTAG | 0.258
TAGATATTATATCTGTGTTAGTGCTAG | 0.922
GACTGACTGCTACTGCTGACGTGCTAG | -0.661
GACGCTATCGACACTGGGGACGTGCTA | 2.09
TTAGTACTGGGTATCGGTTAGTGCTAG | 4.19
TTAGATATCGGGTTTCAATTAGTGCTA | 3.2
GACGGTCTCCTGCTCCTGACGTGCTAG | -0.297
AACGGACTGGACTATCGGGACGTGCTA | 0.663
TTAGGTATCGGGTTTCGGCTAGTGCTA | 6.32
GACGGTATCGGGTTTTGGGACGTGCTA | 1.94
GACGGTATCCTTATCCTGTCGTGCTAG | 0.207
TTAGGTTACGGTTTCGGTTAGTGCTAG | 8.3
GAGCCCGGGGTGTAAGCAACGTGCTAG | -1.02
GACGAACTGGTGTTTCGAGACGTGCTA | 1.31
GACGGTATCCTTCTCCTGGCGTGCTAG | -0.00643
CACGGACTGGGGTATCGGGACGTGCTA | -0.221
TTAGGACTGCTTTTCCTTAAGTGCTAG | 0.229

Block 2
Target: Histone acetyltransferase KAT6A, both winged helices, GST fusion (KAT6A, Homo sapiens, UniProt Q92794, residues 1-181)
Method: protein binding microarray
Molecule type: double-stranded DNA, one strand shown
Matrix: in vitro
Concentration: not given
Notes: 8-mer, flanks averaged, mean of 2 arrays, mostly near background
Relative to: not given
Reading: higher = stronger binding
Construct (chain): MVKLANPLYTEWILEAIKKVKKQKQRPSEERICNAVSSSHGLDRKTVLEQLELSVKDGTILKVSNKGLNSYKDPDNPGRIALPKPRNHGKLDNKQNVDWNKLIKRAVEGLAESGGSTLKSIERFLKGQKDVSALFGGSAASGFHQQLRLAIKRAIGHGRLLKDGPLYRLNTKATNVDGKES
Strand | E-score
AATCGTCA | -0.12
CTGTCTCA | -0.144
AACGTAGC | -0.0255
CGAGTAAG | 0.036
CAGAACTG | -0.0551
GAAAAGCC | 0.0983
AGAGCTCG | 0.0491
GGATTAAC | 0.11
AATTCTTC | 0.0285
AGGCCCTG | -0.184
TACTCCCA | -0.145
AATTGACC | -0.0421
ATAACAAG | -0.125
AGGCCCCA | -0.0533
AGTTCCGG | 0.111
AGTTGTTC | -0.0752
CTCGTGAA | -0.296
CCCAATGA | -0.242
AAACACAT | -0.132
CGATTCGA | 0.0273
AGTAAGCC | 0.00494
CGGCCGGA | 0.231
AAAACGCC | 0.0728
CCTTGTGA | 0.0181
CTCCCCAC | -0.157

Block 3
Target: Fragile X messenger ribonucleoprotein 1, C-terminal low-complexity region (Fmr1, Mus musculus, UniProt P35922)
Method: RNA Bind-n-Seq
Molecule type: RNA
Matrix: in vitro
Concentration: 200 nM
Notes: whole 134-nt RNA, ends assumed
Added: 150 mM KCl
Relative to: input library
Reading: higher = stronger binding
Strand | log2 enrichment
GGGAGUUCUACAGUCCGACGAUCUCAAGUCCUGUGCUACACAUCGUAUGUACCGAAUCGGGUUUUUGGGUGGGAGGGAAAGUAUUAUGUUACGCCGUUCGGAUCUGCACUUCCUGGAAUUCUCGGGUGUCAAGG | 1.14
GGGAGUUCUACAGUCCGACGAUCCCUGUGCUACACAUCGUAUGUACCGAAUCAAACCCCCCCAAAUUUUUAAAUUUUUUUAAAAAAGUAUUAUGUUACGCCGUUCGGAUCUGCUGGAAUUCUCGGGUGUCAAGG | 0.243
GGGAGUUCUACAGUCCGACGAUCAGUCCUGUGCUACACAUCGUAUGUACCGAAUCGGGGUUUGGGGUGGGGAAAAAGGGGAAAGUAUUAUGUUACGCCGUUCGGAUCUGCACUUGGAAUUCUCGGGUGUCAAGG | 0.651
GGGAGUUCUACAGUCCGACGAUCCUCAAGUCCUGUGCUACACAUCGUAUGUACCGAAUCGGAGGAGGAAAAAAAGGAAAGUAUUAUGUUACGCCGUUCGGAUCUGCACUUCCAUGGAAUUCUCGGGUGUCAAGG | -0.267
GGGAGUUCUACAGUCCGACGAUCCCUGUGCUACACAUCGUAUGUACCGAAUCGGGUUUUUUGGGUUUUUUGGGGUUUUUUGGGAAAGUAUUAUGUUACGCCGUUCGGAUCUGCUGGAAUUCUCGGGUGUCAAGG | -0.208
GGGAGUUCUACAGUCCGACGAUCGCAGGAAGUAAAAACAAAUGGAAAUGCUUCGGAUAGUGGCAGGAAAGGGGGUUGCUAAGGAAAGGGUGGGAUGGGAGUGGGUAAAGAGUUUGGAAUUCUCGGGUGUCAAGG | 0.351
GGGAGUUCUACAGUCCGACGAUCUCCUGUGCUACACAUCGUAUGUACCGAAUCGGAAAAAAAGGAAAAAAAGGAAAAAAAGGGAAAGUAUUAUGUUACGCCGUUCGGAUCUGCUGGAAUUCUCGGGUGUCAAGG | -0.236
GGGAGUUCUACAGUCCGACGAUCUAACUUUAGAGGAGGAUCUGAUGGAUAUGGCAGUGGACGUGGAUUUGGGGAUGGCUAUAAUGGUUAUGGAGGAGGACCUGGAGGUGGCAAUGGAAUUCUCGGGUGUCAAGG | 0.17
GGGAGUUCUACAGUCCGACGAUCACCAUGCAGGUGGGCAUCUUUGGGAAGUGGGGCAAGGGGGGGAUAGGGAGGGGGGUAGCACUUUGGGAACAGGUGGUCCCAGGUCGUUUCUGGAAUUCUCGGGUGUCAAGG | 0.616
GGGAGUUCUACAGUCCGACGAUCCACAGACAACACGCACCCACACAGACACAGAGGGAAGGGGUUGGGAUGGGGACAGGGUGCACAGCAGGGCGGGGUAGGAUCCCAGCCCCUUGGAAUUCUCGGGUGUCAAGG | 1.22

Block 4
Target: Centromere-binding protein 1, full length, His-tagged (CBF1, Saccharomyces cerevisiae, UniProt P17106, residues 1-351)
Sequence of UniProt P17106 (whole entry, looked up): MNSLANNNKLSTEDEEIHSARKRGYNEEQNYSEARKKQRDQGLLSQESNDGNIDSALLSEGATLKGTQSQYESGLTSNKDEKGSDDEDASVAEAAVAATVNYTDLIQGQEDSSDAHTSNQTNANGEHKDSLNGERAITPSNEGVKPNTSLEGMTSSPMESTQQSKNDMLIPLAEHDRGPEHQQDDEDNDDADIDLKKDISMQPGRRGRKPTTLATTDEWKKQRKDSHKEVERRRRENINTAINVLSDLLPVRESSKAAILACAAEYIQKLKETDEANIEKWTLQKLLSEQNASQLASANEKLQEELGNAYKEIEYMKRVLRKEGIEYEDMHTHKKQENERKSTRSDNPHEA
Method: competition protein-binding microarray
Molecule type: double-stranded DNA, one strand shown
Matrix: in vitro
Concentration: 2 µM
Notes: whole 60-bp probe, lowest competitor level
Added: Pho4 competitor, 0.05 µM
Reading: higher = stronger binding
Strand | fluorescence intensity [a.u.]
TTAGCTCTGCTGCATTTGCTGTTCGTTTAGTAAAAAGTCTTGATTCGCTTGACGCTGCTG | 65.7
TAACGCTGGGTTTTGCACGTGTTGATAATTACATCGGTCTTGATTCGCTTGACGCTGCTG | 2440
GTTACAAGACTTCACCACGTTAATAGCGATCTGGCTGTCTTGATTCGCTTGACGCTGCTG | 66.4
AAGAAGATTTACTCTCCCGTGATGGCGGGCCAATCAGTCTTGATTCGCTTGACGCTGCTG | 133
CATACCCAACCTTGGCTCGTGGGTGAAGATATTTGTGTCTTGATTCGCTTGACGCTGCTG | 84.2
GTTGCTTGCTAATTGCATGATCAAGTTGGGCCGATGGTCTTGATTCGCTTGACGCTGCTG | 73.7
CGTCCTAGTGATTTTCACGTGTCTTCCATGAGGAAGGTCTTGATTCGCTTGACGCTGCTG | 1040
GTCTTGTCTCATTGTCACAATACTTTCCCCACTTCAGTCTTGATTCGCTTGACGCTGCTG | 101
CAAAATCTTACCAGAAACGTGCTTTCTTCTGGCTTCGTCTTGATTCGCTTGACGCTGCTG | 142
TATACCTTTGTTCGTCACGTGAACCAACAGAACATGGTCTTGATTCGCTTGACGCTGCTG | 6930
CCTTTTGGTCTTCAACACGTTCAGCCTTGATTTCCTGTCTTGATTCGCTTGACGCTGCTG | 93.2
CCATGTTACATAATCTTCGTGCCAGTCTAATTCGTAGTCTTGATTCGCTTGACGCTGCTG | 74
AGCCCCGCGGGATCGCACGTATGAAGCCTGGATGAAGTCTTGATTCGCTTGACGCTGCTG | 67.1
CTAACGAAGGTTTTCCACGTGTTTTACAAGCCAAGTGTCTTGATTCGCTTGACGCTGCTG | 775
CTTCAGTGTTTTTAGCACGTTTTAGAGCAGCAGGATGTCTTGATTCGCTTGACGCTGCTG | 181
ACTACACTAACCGCCCATGTGTTGGATGGTGTAACTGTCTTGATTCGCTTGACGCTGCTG | 96.4
TCACAGTATTTTTTTCACGTGCTTTTTTTTCAAGGCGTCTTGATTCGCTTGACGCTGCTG | 2200
CTAGGGCACCTCCGTCACCTGGCTTTTCTTCAACTTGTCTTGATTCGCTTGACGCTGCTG | 71.1
TTCCTAAAGGAGCCCGGCGTGCCAGCCATCAGAATTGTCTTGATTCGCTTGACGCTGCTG | 59.6
TCGGTTTCAAATTGTCATGCTCCGGAGTAATTGACTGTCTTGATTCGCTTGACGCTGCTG | 102
CATACCCAACCTTGCTAAGTGGGTGAAGATATTTGTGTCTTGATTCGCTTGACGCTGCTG | 68.7
CACAATGTGCGGAATCACCTGCCTGTTTCAATAATGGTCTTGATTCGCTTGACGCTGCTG | 176
AAAGCGGTAATTTGGTGAGTGGGTGCAGATATCTATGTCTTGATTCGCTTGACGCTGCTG | 84.7

Excerpt of the above (block 4):
Strand | fluorescence intensity [a.u.]
ACTACACTAACCGCCCATGTGTTGGATGGTGTAACTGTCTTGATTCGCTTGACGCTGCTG | 96.4
TCACAGTATTTTTTTCACGTGCTTTTTTTTCAAGGCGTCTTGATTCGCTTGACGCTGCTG | 2200
CTAGGGCACCTCCGTCACCTGGCTTTTCTTCAACTTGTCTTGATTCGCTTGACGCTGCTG | 71.1
TTCCTAAAGGAGCCCGGCGTGCCAGCCATCAGAATTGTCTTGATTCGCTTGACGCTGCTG | 59.6
TCGGTTTCAAATTGTCATGCTCCGGAGTAATTGACTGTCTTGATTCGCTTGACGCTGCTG | 102
